Results of several laboratories.
Every numbered part comes from another study and shows a few of its results, in no order. Changes are numbered by the printed parent chain.

Series 1
Target: RING finger protein unkempt homolog, zinc fingers 1-6, GST-SBP tag (UNK, Homo sapiens, UniProt Q9C0B0, residues 30-357)
Technique: RNA Bind-n-Seq
Form: RNA
Matrix: in vitro
Tested at: not given
Notes: RNA with constant flanks, human-mouse chimeric sites, ends assumed
Baseline: input RNA pool
Direction: higher = stronger binding
Shared flanks, not repeated: GGGAGUUCUACAGUCCGACGAUC … CAACAGAGGAUUGAGCAUCA
Target sequence (chain): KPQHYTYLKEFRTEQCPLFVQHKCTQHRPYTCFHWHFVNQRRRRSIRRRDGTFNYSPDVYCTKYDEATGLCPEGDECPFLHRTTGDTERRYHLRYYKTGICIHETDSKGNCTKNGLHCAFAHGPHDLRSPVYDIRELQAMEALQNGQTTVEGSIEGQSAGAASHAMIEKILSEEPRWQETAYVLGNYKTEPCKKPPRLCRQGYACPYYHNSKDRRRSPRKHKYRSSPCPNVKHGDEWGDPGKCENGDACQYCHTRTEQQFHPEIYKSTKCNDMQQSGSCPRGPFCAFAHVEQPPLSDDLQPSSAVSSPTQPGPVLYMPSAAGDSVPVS
Sequence	bound/input enrichment [ratio]
AAAGCCCUUGAAGAAAAAAAAAAUUCAAACAGAUUUGACAAGGGUAGCCAGCUUGGAGUCUAGCAACUUGCCAAUGUGUUUACCAAUCUGGGGGCUUGUUUUUCUUUUCUUCUUUCAAAU	0.298
UCUUUAAAAAAAAAAUUACCUUUUCUGACAGUGCUUUAUGGAGUAAAGAUCCACGUUCAAGCUCAAAGAGCAAAGGCUUUGCACGGAUCUGAUGAUGCUGAUGAAGAAAGAUUUCUGAGA	0.181
UUGCUACUAACUCCAUGGGUCAAGUUCCUGUGGGAAUCAUACAGGCAGUGUUUGGACCUUCUUAGAAACAAUUCUAGAGUAGAGCGCCUUUACCAUGAUAUCGCCCAACAAGCUUUCAAA	0.299
CUGUGACCACAAGAUCCUGAAGUUUGAGCAGCUGAAGUUGACUCCCUCUCCUUGCCUGAACCCCCCCCCACUGCCCCCCCAUCCCCCAGUGUCGGCUGAGAUGUUGCCUCUGCACGGUUC	2.04
GAUCUCGGGCCCUCCCCUCUAGUGACCUUUCGUAUAGUCACUGCUUCUGCAUCAGAUACUUUCAGCUGCAACUCCCUACUGGGUGGGGCACCCAUUUCAGGCAGAAGGUUUUGGUACCCU	0.446
ACCAUUUUCGCGGUUCAGGCUUUGUGUGUAGUUCACUUACGGUAUUAAAUUAUUAUUCUGCUUAGCUUAUAAUAAGGAUUACAAUUGUUAAAGAGGUGAUCACUGAAUACUCUGAAACUU	0.665
AUCCAGUACUCCAAUCACAAAGAACUAAAGACAGAUAAUACAUUAAACCAACGUGCUCAGGCAGUUCUUCAAGCUGUGACAGCUGUCCAGACAGCAAAUACACCUCUUAGUGGCACCACA	0.465
CUUAAUGUUAAUAUUUUUAAAGGAAGCAAGCUAAAAUGUCUGCUUUUGGUACAACACGCAUUAAUAAAAGGUUAAGUUUUGUUUUCCACUGAAGUACGUAAUACUUACUCAGAAAAAAAC	0.185
AUGGAACAUUUCGAUGCGUCACUCAGUACCUAUUUCAAGGCCUUCCUAGGCCCUCGAGAUACAAGAGUCAAAGGAUGGUUCCUCCUGGACAAUUACAUCCCUACGUUUAUCUGCUCUGUU	0.0642
UUGGAAGGACCAGAGCCUAAUCAACUGAAACCACUAGUUAUACAGGCUAUGCCCACCCUAAUAGAACUAAUGAAAGACCCCAGUGUAGUUGUUCGAGACACAACAGCGUGGACUGUGGGC	0.807
GCAGGAUCUUCUAAGUACCAGUGGGACAUUAUGAAAUCCCUUGGGCUCUCUGAUGACGACAUAGUGAAAUUUUCUGAAGCAGAGCACUGGCUUGAUUAUUUCCCGCCACUGGCCGUUCAG	0.164

Series 2
Target: Histone acetyltransferase KAT6A, winged helix 1, GST fusion (KAT6A, Homo sapiens, UniProt Q92794, residues 1-85)
Technique: protein binding microarray
Form: double-stranded DNA, one strand shown
Matrix: in vitro
Tested at: not given
Notes: 8-mer, flanks averaged, mean of 2 arrays, mostly near background
Baseline: not given
Direction: higher = stronger binding
Residues (chain): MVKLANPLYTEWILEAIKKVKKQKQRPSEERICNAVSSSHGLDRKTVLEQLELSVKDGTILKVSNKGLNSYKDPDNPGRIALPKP
Sequence	E-score
CGTGCCTC	0.0801
ATATGTAA	-0.162
AAGGACCC	-0.0155
GAGAGTAA	-0.112
GCGCCCCA	0.248
CATCTGTC	-0.0404
ACACGTAG	-0.144
GCTAATAC	0.0456
AGAACCGG	0.27
AGGCCCAT	-0.11
GCGACTAA	0.0497
ACGCAACT	-0.00758
ACGGGAAC	0.399
ACTGATTA	-0.161
GAACCTGA	-0.112
CAATCGCG	0.183
CGCTAACC	0.322
CATACCTA	-0.0753

Series 3
Target: CCNA1, cyclin fold, Cln2 fusion (human)
Technique: yeast growth competition, sequencing
Matrix: yeast
Notes: weak parent motif
Baseline: not given
Direction: higher = stronger binding
Parent: MICAL3 docking peptide (human); LQLRRQLSFSEDS; partner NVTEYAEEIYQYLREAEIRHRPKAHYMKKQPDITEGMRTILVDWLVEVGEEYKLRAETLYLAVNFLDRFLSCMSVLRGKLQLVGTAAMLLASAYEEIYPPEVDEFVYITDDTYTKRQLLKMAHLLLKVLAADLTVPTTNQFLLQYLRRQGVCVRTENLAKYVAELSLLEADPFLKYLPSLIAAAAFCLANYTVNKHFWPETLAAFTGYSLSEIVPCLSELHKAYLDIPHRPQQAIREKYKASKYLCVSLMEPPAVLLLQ
Substitution	normalised enrichment score
S8G	0.293
L3C	1.49
L3S	0.807
S8M	0.66
S10E	0.762
S10H	0.435
Q2R	0.221
L3N	0.0902
S10F	0.517
S8P	0.165
Q2G	0.304
E11V	0.136
Q2P	0.803
L7M	0.39
D12P	0.612
R5Y	0.494
S8E	-0.0175
L3D	0.154
L3G	0.749
S8F	0.542
S8I	0.607
L7Y	0.208
R4I	0.331
L3A	1.53
S10C	0.649

Series 4
Target: Interferon regulatory factor 3, full length, phosphomimetic (IRF3, Homo sapiens, UniProt Q14653, residues 1-427, S386D/S396D/S398D/S402D/T404D/S405D)
Chain of UniProt Q14653 (whole entry, unmodified, looked up): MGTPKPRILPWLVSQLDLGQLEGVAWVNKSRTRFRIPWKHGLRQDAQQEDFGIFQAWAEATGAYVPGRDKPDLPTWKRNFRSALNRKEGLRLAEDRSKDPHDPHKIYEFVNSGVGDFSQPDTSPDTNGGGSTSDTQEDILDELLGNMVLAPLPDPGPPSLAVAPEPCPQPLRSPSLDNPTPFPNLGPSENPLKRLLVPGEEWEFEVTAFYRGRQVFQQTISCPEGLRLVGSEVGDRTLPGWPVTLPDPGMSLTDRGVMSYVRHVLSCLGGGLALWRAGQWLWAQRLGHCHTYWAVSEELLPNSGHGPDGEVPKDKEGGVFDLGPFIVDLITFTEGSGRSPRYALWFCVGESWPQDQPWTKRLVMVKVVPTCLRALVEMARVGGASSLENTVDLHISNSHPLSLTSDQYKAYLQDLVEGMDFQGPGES
Technique: protein-binding microarray
Form: double-stranded DNA, one strand shown
Matrix: in vitro
Tested at: 2540 nM top
Notes: 60-bp whole probe
Together with: salmon DNA 0.4 mg/ml
Baseline: random background probes
Direction: higher = stronger binding
Shared flanks, not repeated: GCCTAGCAC … GTCTTGATTCGCTTGACGCTGCTG
Sequence	fitted relative affinity [z-score]
TTAGAAGTGGGGTTTCGATTAGTGCTA	1.48
GTATATATGTGTATATATAAGTGCTAG	0.444
GTCGGACTGCTTCTCCTGACGTGCTAG	0.308
GACGGTATCCTCCTGCTGACGTGCTAG	1.76
AATATTATAACACTCTTCTTGTGCTAG	0.699
TTAGGACTGCTTTTCATTTAGTGCTAG	0.873
TTAGGACTGGGGGCTGGGTTAGTGCTA	-0.557
GACGGTATCGGTATCGGGAAGTGCTAG	4.58
TCACTTATTGCTTCCTCACTGTGCTAG	0.442
TTAGGTGTCGGTTCCGGTTAGTGCTAG	4.69
TACGGTTTCGGTTTCGGGACGTGCTAG	10.1
TTAGATTTCAGTCTCGATTGGTGCTAG	2.18
TTTTTTTTTGGAATGTCTTCGTGCTAG	1.07
GACGGACTGCTTTTCCAGACGTGCTAG	0.114
TCAACTCCCTCTCTGGCACTGTGCTAG	0.499
CTTGAACCTGGGAGGTGGAGGTGCTAG	-0.776
TCATACATGGGTTTTCAGACTGTGCTA	0.152
TCAGTTTTTGCTTTCTTACTGTGCTAG	2.16
GACGGTTTAGGGTTTCGGGACGTGCTA	1.53
TCACCTCTCTGTCCCCCACTGTGCTAG	0.726
TTTCTTTTCATTACTGCATTGTGCTAG	4.7
GACGGTCTCATACTGCTGACGTGCTAG	0.606
GACGGCTTCCTACTGCTGACGTGCTAG	-0.336
GACGGACTGGGGTATCGGGTCGTGCTA	-0.246
GACGGACTGAGACTGGGGACGTGCTAG	-0.617

Series 5
Target: Protein max, full length (MAX, Homo sapiens, UniProt P61244-2, residues 1-151)
Technique: protein-binding microarray
Form: double-stranded DNA, one strand shown
Matrix: in vitro
Tested at: not given
Notes: k-mer, scored over probes, only values ≥0.25
Direction: higher = stronger binding
Sequence	E-score
GCGTGTCC	0.397
ATGTGCTG	0.35
AGCAGCAT	0.27
GGCATGAC	0.315
GATCGCAC	0.272
CATGCATA	0.321
GTGCTGCA	0.294
CCACGGGC	0.255
ATGTGTGA	0.347
GCATGTGA	0.471
ATGGTGTG	0.253
GCACGCAA	0.277
CGCGGTCA	0.276
ATCATGAG	0.253

For quick reference, copied from above (series 4):
Sequence	fitted relative affinity [z-score]
TTAGGACTGGGGGCTGGGTTAGTGCTA	-0.557
GACGGTATCGGTATCGGGAAGTGCTAG	4.58
TCACTTATTGCTTCCTCACTGTGCTAG	0.442
TTAGGTGTCGGTTCCGGTTAGTGCTAG	4.69
TACGGTTTCGGTTTCGGGACGTGCTAG	10.1
TTAGATTTCAGTCTCGATTGGTGCTAG	2.18
TTTTTTTTTGGAATGTCTTCGTGCTAG	1.07
GACGGACTGCTTTTCCAGACGTGCTAG	0.114
TCAACTCCCTCTCTGGCACTGTGCTAG	0.499
CTTGAACCTGGGAGGTGGAGGTGCTAG	-0.776
TCATACATGGGTTTTCAGACTGTGCTA	0.152
